Published values pooled from the literature.
Protocols differ between the studies behind these lines. ± marks the error that the study gave.
Cell line: MDA-MB-231

| SMILES | test | setting | IC50 |
| --- | --- | --- | --- |
| C=CCc1cc(OC)c(O)c(OC)c1 | MTT | 24 h | > 50 µM |
| CN(C)c1cccc2c(S(=O)(=O)N[C@H](C(=O)Nc3ccc(C(=O)NO)cc3)c3ccccc3)cccc12 | cell growth or viability, MTT | 48 h | 4.46 µM |
| COCCOc1cc2ncnc(Nc3cccc(-c4cn(CCOCCOCCOCCNC(=S)NCCc5ccc(S(N)(=O)=O)cc5)nn4)c3)c2cc1OCCOC | cell proliferation, flow cytometry cell count | 72 h, hypoxia 1% O2 | 48.5 µM |
| COc1ccc(/C=C/C(=O)O[C@@H]2[C@@H](O)[C@@H](O)[C@H](O[C@H]3[C@@H]4C=CO[C@@H](O[C@@H]5O[C@H](CO)[C@@H](O)[C@H](O)[C@H]5O)[C@@H]4[C@@]4(CO)O[C@@H]34)O[C@H]2C)cc1 | cell growth or viability, MTT | – | 29.2 µM |
| O=C(COc1ccc(-c2cnc3ccccc3n2)cc1)NCCNC(=O)COc1ccc(-c2cnc3ccccc3n2)cc1 | cell viability, MTT | – | > 50 µM |
| COc1cc(C=CC(=O)c2ccc(NC(=O)CN3CCN(c4ccc(Cl)cc4)CC3)cc2)cc(OC)c1OC | cell growth or viability, MTT | – | 19.9 µM |
| COc1ccccc1NC(=O)N[C@H](C(=O)Nc1ccc(C(=O)NO)cc1)c1ccccc1 | cell growth or viability, MTT | 48 h | 4.34 µM |
| O=c1c(-c2ccc(O)cc2)coc2cc(O)cc(O)c12 | cell growth or viability, trypan blue | 72 h | 51 µM |
| O=C(NO)c1ccc(Cn2cc(Cn3cnc4ccc(Br)cc4c3=O)nn2)cc1 | cell growth or viability, MTT | 48 h | 15.8 µM |
| C#Cc1cccc(Nc2ncnc3cc(OCCOC)c(OCCOC)cc23)c1 | cell growth or viability, MTT | – | 1.02 µM |
| O=c1[nH]nc(O)c2c(-c3ccc(Cl)cc3Cl)c3n(c12)CCn1cccc1-3 | cell growth or viability, MTT | 48 h | 81.8 µM |
| COc1ccc(C2CC(c3ccc(NC(=O)CN4CCN(c5ccc(OC)cc5)CC4)cc3)=NN2C(C)=O)cc1 (stereo not drawn) | cell growth or viability, MTT | – | 8.21 µM |
| O=C(NO)c1ccc(NC(=O)[C@@H](NC(=O)c2ccc3ccccc3c2)c2ccccc2)cc1 | cell growth or viability, MTT | 48 h | 4.23 µM |
| CC/C(=C(\c1ccccc1)c1ccc(OCCN(C)CCOCCOCCOc2ccc3[nH]cc(CCNC(C)=O)c3c2)cc1)c1ccccc1 | cell survival, MTT | day 9, dosed days 2, 4, 7 | 27.6 µM |
| COc1cc(/C=C/C(=O)CC(=O)/C=C/c2ccc(O)c(OC)c2)ccc1O | cell viability, MTT | 48 h, serum-free medium | 11 ± 3 µg/mL |
| Cc1cc2ncc(-c3ccccc3OCC(=O)NCCCCNC(=O)COc3ccccc3-c3cnc4cc(C)c(C)cc4n3)nc2cc1C | cell growth or viability, MTT | – | 28.1 µM |
| COC(=O)c1c(-c2ccccc2O)c2n(c1C(=O)OC)CCn1cccc1-2 | cell growth or viability, MTT | 48 h | 28.2 µM |
| O=c1c(O)c(-c2cc(O)c(O)c(O)c2)oc2cc(O)cc(O)c12 | cell growth or viability, trypan blue | 72 h | > 200 µM |
| COc1ccc(N2CCN(CC(=O)Nc3ccc(C4=NN(C(C)=O)C(c5ccc(Br)cc5)C4)cc3)CC2)cc1 (stereo not drawn) | cell growth or viability, MTT | – | 19.3 µM |
| CC(=O)OC[C@@H]1O[C@H](n2cc(Cn3ccc4nc(-c5ccc(C(F)(F)F)cc5)cc(=O)n43)nn2)[C@@H](OC(C)=O)[C@H](OC(C)=O)[C@@H]1OC(C)=O (stereo in doubt) | cell growth or viability, MTT | 72 h | 32.1 µM |
| Clc1nc(Cl)c2[nH]ccc2n1 | cell growth or viability, WST-1 | 72 h | 9.7 µM |
| O=c1[nH]nc(O)c2c(-c3ccc([N+](=O)[O-])cc3)c3n(c12)CCn1cccc1-3 | cell growth or viability, MTT | 48 h | 61.7 µM |
| O=C(COc1ccccc1C1=Nn2c(nnc2-c2ccccc2)SC1)NCCCCNC(=O)COc1ccccc1C1=Nn2c(nnc2-c2ccccc2)SC1 | cell growth or viability, MTT | – | 12.7 µM |
| COC(=O)c1c(-c2ccc(Cl)cc2)c2n(c1C(=O)OC)CCn1cccc1-2 | cell growth or viability, MTT | 48 h | 75.7 µM |

| SMILES | test | setting | IC50 |
| --- | --- | --- | --- |
| COc1cc2c(cc1O)CC[C@@H]1[C@@H]2CC[C@]2(C)[C@@H](O)CC[C@@H]12 | cell growth or viability, MTT | 48 h | 1.27 µM |
| CCOC(=O)c1ccc2c(c1)n(CC)c[n+]2CC | cell growth or viability, crystal violet | 96 h | > 100 µM |
| COC(=O)[C@H]1Cc2c([nH]c3ccccc23)[C@H](c2ccc(Cl)cc2Cl)N1 | cell growth or viability, ATP luminescence | – | < 10 µM |
| CC(=O)c1nn(-c2cccc(C)c2)/c(=N/N=C(\C)c2ccc(NC(=O)c3cccnc3)cc2)s1 | cytotoxicity, MTT | 24 h | 13.8 ± 1.2 µM |
| CCCCCCCCCCC[C@H](C[C@@H]1OC(=O)[C@@H]1CCCCCC)OC(=O)CNC=O | cell growth or viability, MTS | 48 h | > 100 µM |
| COc1ccc(C=CC(=O)c2ccc(NC(=O)CN3CCN(c4ccc(OC)cc4)CC3)cc2)cc1 | cell growth or viability, MTT | – | 23.1 µM |
| COc1cccc2c1C(=O)c1c(O)c3c(c(O)c1C2=O)C[C@@](O)(C(=O)CO)C[C@@H]3O[C@H]1C[C@H](N)[C@H](O)[C@H](C)O1 | cell growth or viability, MTT | 48 h | 1.2 µM |
| CC(=O)N1N=C(c2ccc(NC(=O)CN3CCN(c4ccc(Cl)cc4)CC3)cc2)CC1c1ccco1 (stereo not drawn) | cell growth or viability, MTT | – | 27.8 µM |
| COC(=O)c1c(-c2ccc(O)c(OC)c2)c2n(c1C(=O)OC)CCn1cccc1-2 | cell growth or viability, MTT | 48 h | 42 µM |
| COC1=C(OC)[C@H](O)[C@H](C/C=C(\C)CC/C=C(\C)CCC=C(C)C)[C@@H](C)C1=O | cell growth or viability, MTS | 72 h | 19 µM |
| COc1ccc(N2CCN(CC(=O)Nc3ccc(C(=O)C=Cc4ccc(Cl)cc4Cl)cc3)CC2)cc1 | cell growth or viability, MTT | – | 88.6 µM |
| O=C(NO)c1ccc(Cn2cc(Cn3cnc4cc(Br)ccc4c3=O)nn2)cc1 | cell growth or viability, MTT | 48 h | 4.38 µM |
| CC1CC(C)CN(c2cc(Nc3ccccc3C(=O)O)c3c4c(onc24)-c2ccccc2C3=O)C1 (stereo not drawn) | cell migration | 8 h | > 100 µM |
| COC(=O)c1c(-c2cccc(OC)c2)c2n(c1C(=O)OC)CCn1cccc1-2 | cell growth or viability, MTT | 48 h | 70.8 µM |
| C=C1[C@@H]2[C@H]3OC(=O)[C@@H](CN4CCC(O)CC4)[C@@H]3CCC(=C)[C@@H]2C[C@@H]1O | cell growth, MTT | 48 h | < 50 µM |
| O=C(NO)c1ccc(Cn2cc(Cn3cnc4ccccc4c3=O)nn2)cc1 | cell growth or viability, MTT | 48 h | 14.1 µM |
| CC(=O)OC[C@@H]1O[C@H](n2cc(Cn3ccc4nc(-c5ccc(Br)cc5)cc(=O)n43)nn2)[C@@H](OC(C)=O)[C@H](OC(C)=O)[C@@H]1OC(C)=O (stereo in doubt) | cell growth or viability, MTT | 72 h | 46 µM |
| Cc1ccc(-c2c3n(c4c(=O)[nH]nc(O)c24)CCn2cccc2-3)cc1 | cell growth or viability, MTT | 48 h | 65.5 µM |
| CC(=O)N1N=C(c2ccc(NC(=O)CN3CCN(c4ccc(Cl)cc4)CC3)cc2)CC1c1ccc(Cl)cc1Cl (stereo not drawn) | cell growth or viability, MTT | – | 64.7 µM |
| COC(=O)c1c(-c2cccc(Br)c2)c2n(c1C(=O)OC)CCn1cccc1-2 | cell growth or viability, MTT | 48 h | 71.7 µM |
| Cc1ccc2c(=O)n(Cc3cn(Cc4ccc(C(=O)NO)cc4)nn3)cnc2c1 | cell growth or viability, MTT | 48 h | 7.05 µM |
| COc1ccc(N2CCN(CC(=O)Nc3ccc(C(=O)C=Cc4ccccc4)cc3)CC2)cc1 | cell growth or viability, MTT | – | 58.7 µM |
| Cc1cc2ncc(-c3ccc(OCC(=O)NCCNC(=O)COc4ccc(-c5cnc6cc(C)c(C)cc6n5)cc4)cc3)nc2cc1C | cell growth or viability, MTT | – | 22.4 µM |
| O=C(NO)c1ccc(Cn2cc(Cn3cnc4ccc(F)cc4c3=O)nn2)cc1 | cell growth or viability, MTT | 48 h | 7.99 µM |

A few entries again:
| SMILES | test | setting | IC50 |
| --- | --- | --- | --- |
| Cc1cc2ncc(-c3ccc(OCC(=O)NCCNC(=O)COc4ccc(-c5cnc6cc(C)c(C)cc6n5)cc4)cc3)nc2cc1C | cell growth or viability, MTT | – | 22.4 µM |
| Clc1nc(Cl)c2[nH]ccc2n1 | cell growth or viability, WST-1 | 72 h | 9.7 µM |
| CN(C)c1cccc2c(S(=O)(=O)N[C@H](C(=O)Nc3ccc(C(=O)NO)cc3)c3ccccc3)cccc12 | cell growth or viability, MTT | 48 h | 4.46 µM |
